Assay results pooled from the literature.
Each line is one published result; not all experiments were run side by side. Several values in a cell are separate wells, animals, samples, runs or records. Numbers after ± are the reported error.
Protein-S-isoprenylcysteine O-methyltransferase: Protein-S-isoprenylcysteine O-methyltransferase (Homo sapiens, UniProt O60725)
UniProt O60725, sequence (whole entry, looked up): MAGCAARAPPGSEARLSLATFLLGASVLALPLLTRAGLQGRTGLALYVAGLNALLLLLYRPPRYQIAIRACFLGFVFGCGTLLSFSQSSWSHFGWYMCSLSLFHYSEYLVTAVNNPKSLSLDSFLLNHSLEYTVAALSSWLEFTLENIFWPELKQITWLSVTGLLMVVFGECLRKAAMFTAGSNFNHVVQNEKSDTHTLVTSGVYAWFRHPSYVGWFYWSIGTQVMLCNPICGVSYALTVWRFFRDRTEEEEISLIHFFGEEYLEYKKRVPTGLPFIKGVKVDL
PTGS2: Prostaglandin G/H synthase 2 (PTGS2, Homo sapiens, UniProt P35354)
UniProt P35354, sequence (whole entry, looked up): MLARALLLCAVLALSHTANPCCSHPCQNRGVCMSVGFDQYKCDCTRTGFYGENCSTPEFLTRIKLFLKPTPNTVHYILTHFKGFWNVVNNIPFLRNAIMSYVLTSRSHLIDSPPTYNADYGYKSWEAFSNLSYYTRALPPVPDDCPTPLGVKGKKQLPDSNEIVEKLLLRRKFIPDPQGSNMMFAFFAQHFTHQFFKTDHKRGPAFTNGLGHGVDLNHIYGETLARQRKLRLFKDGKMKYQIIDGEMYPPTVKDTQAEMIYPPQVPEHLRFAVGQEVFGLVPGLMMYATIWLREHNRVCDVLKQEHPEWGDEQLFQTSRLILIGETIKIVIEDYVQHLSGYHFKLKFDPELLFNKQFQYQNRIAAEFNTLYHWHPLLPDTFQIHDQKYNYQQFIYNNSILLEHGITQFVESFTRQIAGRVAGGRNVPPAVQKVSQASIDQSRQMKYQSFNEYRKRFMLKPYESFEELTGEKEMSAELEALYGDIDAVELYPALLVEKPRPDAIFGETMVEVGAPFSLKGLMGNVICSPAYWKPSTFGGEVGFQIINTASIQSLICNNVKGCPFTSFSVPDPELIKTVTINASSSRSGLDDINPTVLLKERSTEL
Coelenterazine h 2-monooxygenase: Coelenterazine h 2-monooxygenase (Renilla reniformis, UniProt P27652)
UniProt P27652, sequence (whole entry, looked up): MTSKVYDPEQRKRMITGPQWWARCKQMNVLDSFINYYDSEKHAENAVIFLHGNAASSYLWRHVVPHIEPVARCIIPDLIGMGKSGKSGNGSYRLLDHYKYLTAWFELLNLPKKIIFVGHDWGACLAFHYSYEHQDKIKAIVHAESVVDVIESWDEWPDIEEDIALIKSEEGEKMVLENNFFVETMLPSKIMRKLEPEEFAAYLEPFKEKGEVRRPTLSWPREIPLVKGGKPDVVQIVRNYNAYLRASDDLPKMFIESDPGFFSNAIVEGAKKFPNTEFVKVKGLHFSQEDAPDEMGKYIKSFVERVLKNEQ
USP5: Ubiquitin carboxyl-terminal hydrolase 5 (USP5, Homo sapiens, UniProt P45974)
UniProt Q02127, sequence (whole entry, looked up): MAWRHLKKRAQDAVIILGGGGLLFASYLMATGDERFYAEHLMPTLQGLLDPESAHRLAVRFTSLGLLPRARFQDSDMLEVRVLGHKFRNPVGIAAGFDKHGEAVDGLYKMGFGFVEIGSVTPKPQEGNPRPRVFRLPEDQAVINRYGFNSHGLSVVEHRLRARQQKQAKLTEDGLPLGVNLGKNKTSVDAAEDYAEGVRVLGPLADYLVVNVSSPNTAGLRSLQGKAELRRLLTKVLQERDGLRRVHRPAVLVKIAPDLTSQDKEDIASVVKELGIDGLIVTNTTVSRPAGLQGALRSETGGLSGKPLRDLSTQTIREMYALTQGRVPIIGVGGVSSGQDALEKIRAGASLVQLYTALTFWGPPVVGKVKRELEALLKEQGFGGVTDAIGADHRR
UniProt P45974, sequence (whole entry, looked up): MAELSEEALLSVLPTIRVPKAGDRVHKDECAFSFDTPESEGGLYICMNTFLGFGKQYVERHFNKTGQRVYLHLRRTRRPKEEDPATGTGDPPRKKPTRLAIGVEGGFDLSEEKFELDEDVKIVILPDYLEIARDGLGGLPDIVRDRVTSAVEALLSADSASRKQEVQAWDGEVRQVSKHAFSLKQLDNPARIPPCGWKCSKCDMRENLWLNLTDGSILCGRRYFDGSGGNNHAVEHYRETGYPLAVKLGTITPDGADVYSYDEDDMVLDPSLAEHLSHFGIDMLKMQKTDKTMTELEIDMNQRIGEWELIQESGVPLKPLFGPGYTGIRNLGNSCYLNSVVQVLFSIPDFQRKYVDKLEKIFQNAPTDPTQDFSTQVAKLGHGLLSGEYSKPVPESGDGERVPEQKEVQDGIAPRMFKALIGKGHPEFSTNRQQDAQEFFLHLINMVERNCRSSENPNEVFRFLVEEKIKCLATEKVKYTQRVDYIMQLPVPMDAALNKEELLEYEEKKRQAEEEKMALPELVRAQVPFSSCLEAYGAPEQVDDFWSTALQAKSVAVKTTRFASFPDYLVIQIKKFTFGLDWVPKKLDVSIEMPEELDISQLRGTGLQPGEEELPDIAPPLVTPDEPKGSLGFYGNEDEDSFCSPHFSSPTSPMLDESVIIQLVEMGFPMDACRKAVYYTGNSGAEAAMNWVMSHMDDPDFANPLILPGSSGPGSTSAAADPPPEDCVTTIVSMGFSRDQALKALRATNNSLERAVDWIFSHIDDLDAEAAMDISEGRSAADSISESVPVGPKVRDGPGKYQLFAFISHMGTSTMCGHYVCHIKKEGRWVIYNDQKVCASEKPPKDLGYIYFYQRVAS
UniProt P00519, sequence (whole entry, looked up): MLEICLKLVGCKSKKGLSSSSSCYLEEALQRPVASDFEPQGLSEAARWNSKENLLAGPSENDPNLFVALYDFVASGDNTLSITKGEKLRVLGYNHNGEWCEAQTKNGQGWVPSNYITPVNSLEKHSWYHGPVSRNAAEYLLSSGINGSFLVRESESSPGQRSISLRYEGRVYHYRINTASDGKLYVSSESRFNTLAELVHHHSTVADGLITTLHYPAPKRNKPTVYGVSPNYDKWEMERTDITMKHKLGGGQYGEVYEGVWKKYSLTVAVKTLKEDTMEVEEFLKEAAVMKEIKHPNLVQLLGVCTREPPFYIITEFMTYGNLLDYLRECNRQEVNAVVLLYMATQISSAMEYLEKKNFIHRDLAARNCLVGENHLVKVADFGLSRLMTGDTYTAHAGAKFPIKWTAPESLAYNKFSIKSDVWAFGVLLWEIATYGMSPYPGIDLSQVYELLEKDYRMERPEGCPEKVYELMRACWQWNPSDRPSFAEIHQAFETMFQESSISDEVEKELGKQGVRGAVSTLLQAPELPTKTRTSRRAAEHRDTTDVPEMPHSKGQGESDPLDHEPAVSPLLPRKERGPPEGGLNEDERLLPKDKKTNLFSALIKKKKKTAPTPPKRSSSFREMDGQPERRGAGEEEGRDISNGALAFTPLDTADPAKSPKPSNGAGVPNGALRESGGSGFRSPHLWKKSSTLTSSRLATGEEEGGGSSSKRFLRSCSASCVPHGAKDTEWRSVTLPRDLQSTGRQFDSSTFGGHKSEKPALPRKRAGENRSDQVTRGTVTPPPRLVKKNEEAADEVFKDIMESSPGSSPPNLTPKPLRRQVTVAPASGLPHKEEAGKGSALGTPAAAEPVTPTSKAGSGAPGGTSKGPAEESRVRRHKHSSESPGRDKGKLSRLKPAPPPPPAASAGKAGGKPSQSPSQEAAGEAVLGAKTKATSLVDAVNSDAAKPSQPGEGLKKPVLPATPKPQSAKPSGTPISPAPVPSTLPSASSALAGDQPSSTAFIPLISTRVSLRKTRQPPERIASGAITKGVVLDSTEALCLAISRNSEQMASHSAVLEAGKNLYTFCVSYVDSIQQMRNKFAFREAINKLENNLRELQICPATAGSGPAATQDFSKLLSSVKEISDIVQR

COc1cc(C(C)=O)ccc1OCC(O)CN1CCN(c2cccc(Cl)c2)CC1 (stereo not shown) — inhibition (DRD3 (Homo sapiens, UniProt P35462); enzyme activity, inhibitor; 10 µM): 9.8%
Cc1nn(-c2cccc(N)c2)c(=O)c2cnc(Nc3ccc(N4CCNCC4)cc3)nc12 — IC50 (EGFR (Homo sapiens, UniProt P00533, L858R); enzyme activity, inhibitor): > 10 µM
COc1cccc(-c2cc(F)c(NC(=O)Nc3sc(C)nc3C(=O)O)c(F)c2)c1 — inhibition (DHODH (Homo sapiens, UniProt Q02127); enzyme activity, DCIP colorimetric; 50.00 µM): 24.7% and 21.2% and 23%
CCCCCCCCN(CCC(=O)Nc1ccccc1)C(=O)c1coc2ccccc12 — inhibition (Protein-S-isoprenylcysteine O-methyltransferase; enzyme activity; Sf9 membranes; 50 µM, together with: [3H]S-adenosylmethionine, biotin-farnesyl-L-cysteine): 47%
CS(=O)(=O)c1ccc(-n2cc(C=NN=c3[nH]c(-c4ccc([N+](=O)[O-])cc4)cs3)c(-c3ccc([N+](=O)[O-])cc3)n2)cc1 — inhibition (PTGS2; enzyme activity; 0.1 µM): 15.9%
CC1CCC(C(C)C)C(OC(=O)Cn2c(-c3ccc(Br)cc3)[n+](C)c3ccccc32)C1.[Cl-] (stereo not shown) — inhibition (Coelenterazine h 2-monooxygenase; luciferase activity, inhibitor, luminescence counter-screen; concentration not given, test 3 new dilution): 109% and 86.6%
Cc1ccc(-c2nn(-c3ccc(S(C)(=O)=O)cc3)cc2C=NN=c2[nH]c(-c3ccc(Br)cc3)cs2)cc1 (mixture of isomers) — inhibition (PTGS2; enzyme activity; 0.01 µM): 15.7%
Nc1ncc(-c2ccc([C@H]3[C@@H](F)[C@@H](F)C[C@@H](F)[C@H]3F)cc2)cn1 — hepatic clearance (hepatocyte stability; cryopreserved human hepatocytes; 1 µM): 6.2 mL/min/kg
NNC1(c2nnnn2Cc2ccc(Cl)cc2)CCN(Cc2ccccc2)CC1 — inhibition (Endothiapepsin (EAPA, Cryphonectria parasitica, UniProt P11838); enzyme activity, inhibitor; 200 µM): 46.1%
C/C=C/C(=O)Nc1ccc2nc(NCCCCCN(C)C)nc(NCCCCCCN(C)C)c2c1 — inhibition (DNA (cytosine-5)-methyltransferase 3A, with DNMT3L (DNMT3A, Homo sapiens, UniProt Q9Y6K1); enzyme activity; 50 µM): 6%
O=C1CC(=O)c2ccc3c4c(ccc1c24)C(=O)CC3=O — inhibition (USP5; enzyme activity, inhibitor; 17 µM): 91%
CC(=O)n1cc([C@H]2C=C(C(=O)N3CCN(Cc4ccc5c(c4)OCO5)CC3)O[C@@H](OCc3ccc(CO)cc3)C2)c2ccccc21 — inhibition (Coelenterazine h 2-monooxygenase; luciferase activity, inhibitor, luminescence counter-screen; concentration not given, test 3 new dilution): 66.1% and 64.9%
Cc1cc(=O)oc2nc(S)nc(O)c12 — inhibition (USP5; enzyme activity, inhibitor; 17 µM): 6%
CC(=O)C12NC(C)(C)CC1(C)C(=O)C1=C2c2c(c3c4n2C(C)(C)CC2=C4C4(CC(C)(C)NC(C)(C4)C2=O)CC3(C)C)C(=O)C(C)(C)N1 (single isomer, unassigned; (-)) — inhibition (TRPA1 (Homo sapiens, UniProt O75762); ion current, inhibitor, patch clamp; HEK-293T; 50 µM): 3.56%
O=C1c2sc(-c3ccc(N4CCC(F)C4)nc3F)nc2CCN1c1cccnc1 (stereo not shown) — inhibition (Androgen receptor (AR, Homo sapiens, UniProt P10275); ligand displacement, radioligand; 1 µM): 0%
CO[C@@H]1OC[C@@H](O)[C@H](O)[C@H]1O — inhibition (PTGS2; enzyme activity, inhibitor; 3.9 µg/mL): 42.9%
CN(C)C/C=C/C(=O)Nc1ccc2nc(NCCCCCN(C)C)nc(NCCCCCCN(C)C)c2c1 — inhibition (PRMT6 (Homo sapiens, UniProt Q96LA8); enzyme activity, inhibitor, radiometric; 50 µM): 89%
O=C(COCC(F)F)Nc1ccc([C@H]2[C@@H](F)[C@@H](F)C[C@@H](F)[C@H]2F)cc1 — hepatic clearance (hepatocyte stability; cryopreserved rat hepatocytes; 1 µM): 33 mL/min/kg
C=CC(=O)N1Cc2nc(-c3cc(-c4cc(Cl)cnc4Cl)c(F)cc3F)n(-c3ccncn3)c2C1 — inhibition (PRKACG (Homo sapiens, UniProt P22612); cell-free assay; 1 µM): -6.8%
Cc1ccc(-c2nn(-c3ccc(S(C)(=O)=O)cc3)cc2C=NN=c2[nH]c(-c3ccc([N+](=O)[O-])cc3)cs2)cc1 — inhibition (PTGS2; enzyme activity; 1 µM): 46.3%
CCCCCCCCN(CCC(=O)Nc1ccccc1)C(=O)C1CCCN1 (stereo not shown) — inhibition (Protein-S-isoprenylcysteine O-methyltransferase; enzyme activity; Sf9 membranes; 50 µM, together with: [3H]S-adenosylmethionine, biotin-farnesyl-L-cysteine): 62%
C[Si](C)(C)C[C@H](CN)CC(=O)O — inhibition (P2Y receptor, rat; binding, radioligand binding; 250 µM, together with: labelled ATP analogue): 21%
Cc1cc(N)c(O)cc1C — inhibition (USP5; enzyme activity, inhibitor; 17 µM): 65%
Nc1ncc(-c2cc(-c3cnn(CC(F)(F)F)c3)ncc2F)nc1C(=O)NC1CNCC(F)C1 (stereo not shown) — remaining binding (MERTK; KINOMEscan; 1 µM; reference: DMSO control): 38%
N#CC(=CNc1ccc(C(=O)O)cc1)c1nc2ccccc2[nH]1 — inhibition (USP5; enzyme activity, inhibitor; 17 µM): 2%
CN1CC[C@@H](COc2cnc(C#N)cc2-c2ccn3nc(NC(=O)C4CC4)cc3c2)C1 — inhibition (CDKL4 (Homo sapiens, UniProt Q5MAI5); enzyme activity, inhibitor; 1 µM): -4%
COc1cc(OC)c(F)c(/C=C/c2cnc3ccn(S(=O)(=O)c4cn(CCF)cn4)c3n2)c1F — inhibition (ABL1 (Homo sapiens, UniProt P00519); 1000 nM): 0%
COC1CN([C@H]2CC[C@H]([C@@]3(C)Oc4c(Cl)cc(C(=O)NCc5c(SC)cc(C)[nH]c5=O)c(C)c4O3)CC2)C1 — log2 fold change (RNA-seq, measured: TCF7L2; human, whole blood; dose not given, 24 h; reference: pretreatment baseline): 1.17
CCCCCCCCN(CCC(=O)Nc1ccccc1)C(=O)c1ccncc1 — inhibition (Protein-S-isoprenylcysteine O-methyltransferase; enzyme activity; Sf9 membranes; 50 µM, together with: [3H]S-adenosylmethionine, biotin-farnesyl-L-cysteine): 30%
CN(C)C=CC=C1CCc2ccccc2C1=O — inhibition (USP5; enzyme activity, inhibitor; 17 µM): 84%
CC=C(C)C(=O)OC1CC2C(C=C(C)C3C(OC(C)=O)CC(=O)C13C)OC(=O)C2C (stereo not shown) — inhibition (PTGS2; enzyme activity, inhibitor; 1.95 µg/mL): 0%
O=C1c2sc(-c3ccc(N4CCC(CO)CC4)nc3F)nc2CCN1c1cccnc1 — inhibition (CYSLTR1 (Homo sapiens, UniProt Q9Y271); ligand displacement, radioligand; 1 µM): 3%
C/C=C(/C)C(=O)O[C@@H]1C=C(C)CC[C@]2(O)[C@@H](C(C)C)CC(=O)[C@]12C — inhibition (PTGS2; enzyme activity, inhibitor; 7.81 µg/mL): 0%
CS(=O)(=O)Nc1cccc(-c2csc3cnc(Nc4ccc(N5CCN(CCCCCOc6cccc7c6C(=O)N(C6CCC(=O)NC6=O)C7=O)CC5)cc4)nc23)c1 (stereo not shown) — inhibition (MAST3 (Homo sapiens, UniProt O60307); probe labelling, inhibitor, KiNativ chemoproteomics; MOLT-4; 1 µM): 12.7%
CC1(C)C=C2C(=NN(c3ccccc3)C(N)=C2C#N)CO1 — inhibition (USP5; enzyme activity, inhibitor; 17 µM): 6%
CC(C)Cc1ccc(-c2nn(-c3ccc(S(C)(=O)=O)cc3)cc2C=NN=c2[nH]c(-c3ccc(Br)cc3)cs2)cc1 — inhibition (PTGS2; enzyme activity; 100 µM): 93.4%
Cc1cc(C(=O)NN=C2CC(=O)c3ccccc32)c(C)o1 — inhibition (USP5; enzyme activity, inhibitor; 17 µM): 23%
Cc1ccc2c(c1)sc(-c1ccc(N(C)C)cc1)[n+]2C — inhibition (Coelenterazine h 2-monooxygenase; luciferase activity, inhibitor, luminescence counter-screen; concentration not given, test 1): 91.7% and 73.8%
CC(NC1=C(C(=O)/C=C/c2ccccc2)C(=O)CC(C)(C)C1)C(=O)O (stereo not shown) — inhibition (USP5; enzyme activity, inhibitor; 17 µM): 8%
COc1cc(NC(=O)c2ccc([N+](=O)[O-])cc2)ccc1NC(=O)c1ccc([N+](=O)[O-])cc1 — inhibition (Apelin receptor (APLNR, Homo sapiens, UniProt P35414); β-arrestin recruitment, antagonist, PRESTO-Tango; concentration not given): 79.1 ± 5.1%

Excerpt of the above:
CC1CCC(C(C)C)C(OC(=O)Cn2c(-c3ccc(Br)cc3)[n+](C)c3ccccc32)C1.[Cl-] (stereo not shown) — inhibition (Coelenterazine h 2-monooxygenase; luciferase activity, inhibitor, luminescence counter-screen; concentration not given, test 3 new dilution): 109% and 86.6%
CCCCCCCCN(CCC(=O)Nc1ccccc1)C(=O)c1coc2ccccc12 — inhibition (Protein-S-isoprenylcysteine O-methyltransferase; enzyme activity; Sf9 membranes; 50 µM, together with: [3H]S-adenosylmethionine, biotin-farnesyl-L-cysteine): 47%
O=C(COCC(F)F)Nc1ccc([C@H]2[C@@H](F)[C@@H](F)C[C@@H](F)[C@H]2F)cc1 — hepatic clearance (hepatocyte stability; cryopreserved rat hepatocytes; 1 µM): 33 mL/min/kg
CS(=O)(=O)Nc1cccc(-c2csc3cnc(Nc4ccc(N5CCN(CCCCCOc6cccc7c6C(=O)N(C6CCC(=O)NC6=O)C7=O)CC5)cc4)nc23)c1 (stereo not shown) — inhibition (MAST3 (Homo sapiens, UniProt O60307); probe labelling, inhibitor, KiNativ chemoproteomics; MOLT-4; 1 µM): 12.7%
CC(=O)C12NC(C)(C)CC1(C)C(=O)C1=C2c2c(c3c4n2C(C)(C)CC2=C4C4(CC(C)(C)NC(C)(C4)C2=O)CC3(C)C)C(=O)C(C)(C)N1 (single isomer, unassigned; (-)) — inhibition (TRPA1 (Homo sapiens, UniProt O75762); ion current, inhibitor, patch clamp; HEK-293T; 50 µM): 3.56%
Cc1ccc(-c2nn(-c3ccc(S(C)(=O)=O)cc3)cc2C=NN=c2[nH]c(-c3ccc([N+](=O)[O-])cc3)cs2)cc1 — inhibition (PTGS2; enzyme activity; 1 µM): 46.3%
